Measured values collected from several papers.
Compare with care: the assays were run in different laboratories. Numbers after ± are the reported error.
Cacna1b: Voltage-dependent N-type calcium channel subunit alpha-1B (Cacna1b, Rattus norvegicus, UniProt Q02294)
Sequence of UniProt Q02294 (whole entry, looked up): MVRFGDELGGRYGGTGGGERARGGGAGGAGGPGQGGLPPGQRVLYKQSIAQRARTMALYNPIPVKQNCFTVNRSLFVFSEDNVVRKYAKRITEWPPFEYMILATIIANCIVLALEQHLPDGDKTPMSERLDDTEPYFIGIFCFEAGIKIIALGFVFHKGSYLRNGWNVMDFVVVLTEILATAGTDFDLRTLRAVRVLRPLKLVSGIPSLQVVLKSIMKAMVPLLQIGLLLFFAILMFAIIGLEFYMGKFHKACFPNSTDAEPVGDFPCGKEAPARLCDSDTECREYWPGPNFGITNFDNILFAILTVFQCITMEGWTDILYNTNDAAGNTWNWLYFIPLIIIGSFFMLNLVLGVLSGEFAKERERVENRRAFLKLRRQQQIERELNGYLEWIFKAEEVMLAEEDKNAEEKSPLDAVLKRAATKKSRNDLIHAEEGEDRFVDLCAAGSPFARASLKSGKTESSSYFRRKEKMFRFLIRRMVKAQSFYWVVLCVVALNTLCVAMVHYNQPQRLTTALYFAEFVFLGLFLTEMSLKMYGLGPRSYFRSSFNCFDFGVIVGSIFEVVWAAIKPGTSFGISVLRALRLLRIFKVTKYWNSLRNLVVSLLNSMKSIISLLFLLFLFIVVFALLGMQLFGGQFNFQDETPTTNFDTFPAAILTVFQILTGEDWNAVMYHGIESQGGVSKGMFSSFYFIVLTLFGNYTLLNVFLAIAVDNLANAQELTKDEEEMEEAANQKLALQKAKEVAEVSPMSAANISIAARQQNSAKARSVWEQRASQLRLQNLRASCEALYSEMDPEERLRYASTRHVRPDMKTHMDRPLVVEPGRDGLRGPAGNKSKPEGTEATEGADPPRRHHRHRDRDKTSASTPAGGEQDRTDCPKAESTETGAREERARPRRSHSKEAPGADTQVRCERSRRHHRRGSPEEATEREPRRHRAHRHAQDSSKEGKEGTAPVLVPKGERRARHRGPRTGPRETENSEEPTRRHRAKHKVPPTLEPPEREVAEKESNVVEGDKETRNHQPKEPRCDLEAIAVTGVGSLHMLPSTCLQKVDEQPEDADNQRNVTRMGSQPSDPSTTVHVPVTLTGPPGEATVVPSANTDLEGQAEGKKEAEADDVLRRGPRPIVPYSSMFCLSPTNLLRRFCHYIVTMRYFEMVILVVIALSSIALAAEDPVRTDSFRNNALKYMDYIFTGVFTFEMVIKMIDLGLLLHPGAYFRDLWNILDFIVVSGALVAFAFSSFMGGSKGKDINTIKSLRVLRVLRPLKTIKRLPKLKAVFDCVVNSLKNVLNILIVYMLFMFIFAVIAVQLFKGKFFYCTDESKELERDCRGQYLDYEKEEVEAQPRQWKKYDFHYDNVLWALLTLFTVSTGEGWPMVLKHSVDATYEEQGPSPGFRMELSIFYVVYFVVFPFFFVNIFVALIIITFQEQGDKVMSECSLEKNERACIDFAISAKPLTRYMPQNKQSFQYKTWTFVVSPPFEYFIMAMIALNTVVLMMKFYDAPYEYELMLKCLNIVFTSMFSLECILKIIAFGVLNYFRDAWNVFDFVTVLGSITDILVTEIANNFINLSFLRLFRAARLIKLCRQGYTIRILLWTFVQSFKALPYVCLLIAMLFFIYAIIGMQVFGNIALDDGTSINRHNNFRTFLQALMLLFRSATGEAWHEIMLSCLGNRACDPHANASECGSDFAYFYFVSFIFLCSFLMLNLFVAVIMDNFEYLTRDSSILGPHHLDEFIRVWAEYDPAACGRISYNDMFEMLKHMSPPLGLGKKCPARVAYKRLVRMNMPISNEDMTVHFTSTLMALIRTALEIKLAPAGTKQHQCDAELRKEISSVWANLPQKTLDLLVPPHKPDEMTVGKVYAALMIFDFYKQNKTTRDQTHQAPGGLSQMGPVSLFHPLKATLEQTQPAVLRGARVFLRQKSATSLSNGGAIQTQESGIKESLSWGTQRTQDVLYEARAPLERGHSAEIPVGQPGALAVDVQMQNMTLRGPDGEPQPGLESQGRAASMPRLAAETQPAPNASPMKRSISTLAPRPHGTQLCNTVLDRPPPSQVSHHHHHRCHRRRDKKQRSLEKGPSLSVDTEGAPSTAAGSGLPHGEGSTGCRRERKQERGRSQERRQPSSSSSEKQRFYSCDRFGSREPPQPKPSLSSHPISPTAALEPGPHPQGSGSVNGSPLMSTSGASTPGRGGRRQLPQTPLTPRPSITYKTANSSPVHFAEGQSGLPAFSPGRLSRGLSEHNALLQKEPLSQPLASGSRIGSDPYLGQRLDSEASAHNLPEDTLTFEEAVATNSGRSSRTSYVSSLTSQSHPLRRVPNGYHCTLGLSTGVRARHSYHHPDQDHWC
inhA: Enoyl-[acyl-carrier-protein] reductase [NADH] (inhA, Mycobacterium tuberculosis, UniProt P9WGR1)
Sequence of UniProt P9WGR1 (whole entry, looked up): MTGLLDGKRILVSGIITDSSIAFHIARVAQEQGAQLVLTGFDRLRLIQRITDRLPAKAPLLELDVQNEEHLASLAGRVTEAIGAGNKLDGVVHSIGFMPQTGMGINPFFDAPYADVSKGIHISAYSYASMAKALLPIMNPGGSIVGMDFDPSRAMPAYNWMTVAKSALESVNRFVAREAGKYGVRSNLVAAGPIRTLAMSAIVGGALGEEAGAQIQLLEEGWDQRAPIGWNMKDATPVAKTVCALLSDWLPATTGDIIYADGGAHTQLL
Sequence of UniProt P25100 (whole entry, looked up): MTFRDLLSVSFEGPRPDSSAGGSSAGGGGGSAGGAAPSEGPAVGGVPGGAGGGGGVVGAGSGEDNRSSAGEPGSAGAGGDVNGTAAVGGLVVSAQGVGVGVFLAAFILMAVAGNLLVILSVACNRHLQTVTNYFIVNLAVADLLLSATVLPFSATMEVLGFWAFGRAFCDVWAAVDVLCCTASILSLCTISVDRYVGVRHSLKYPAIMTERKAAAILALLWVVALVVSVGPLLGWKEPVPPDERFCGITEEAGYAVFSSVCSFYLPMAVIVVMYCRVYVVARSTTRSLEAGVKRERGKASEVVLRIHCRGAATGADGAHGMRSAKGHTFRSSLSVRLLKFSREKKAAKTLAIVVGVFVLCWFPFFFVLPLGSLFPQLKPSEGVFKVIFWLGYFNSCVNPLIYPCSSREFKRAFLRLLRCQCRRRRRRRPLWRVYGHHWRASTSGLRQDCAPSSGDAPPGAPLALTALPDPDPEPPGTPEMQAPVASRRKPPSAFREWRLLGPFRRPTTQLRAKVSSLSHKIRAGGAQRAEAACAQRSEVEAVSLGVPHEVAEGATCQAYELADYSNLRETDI
Sequence of UniProt Q8NER1 (whole entry, unmodified, looked up): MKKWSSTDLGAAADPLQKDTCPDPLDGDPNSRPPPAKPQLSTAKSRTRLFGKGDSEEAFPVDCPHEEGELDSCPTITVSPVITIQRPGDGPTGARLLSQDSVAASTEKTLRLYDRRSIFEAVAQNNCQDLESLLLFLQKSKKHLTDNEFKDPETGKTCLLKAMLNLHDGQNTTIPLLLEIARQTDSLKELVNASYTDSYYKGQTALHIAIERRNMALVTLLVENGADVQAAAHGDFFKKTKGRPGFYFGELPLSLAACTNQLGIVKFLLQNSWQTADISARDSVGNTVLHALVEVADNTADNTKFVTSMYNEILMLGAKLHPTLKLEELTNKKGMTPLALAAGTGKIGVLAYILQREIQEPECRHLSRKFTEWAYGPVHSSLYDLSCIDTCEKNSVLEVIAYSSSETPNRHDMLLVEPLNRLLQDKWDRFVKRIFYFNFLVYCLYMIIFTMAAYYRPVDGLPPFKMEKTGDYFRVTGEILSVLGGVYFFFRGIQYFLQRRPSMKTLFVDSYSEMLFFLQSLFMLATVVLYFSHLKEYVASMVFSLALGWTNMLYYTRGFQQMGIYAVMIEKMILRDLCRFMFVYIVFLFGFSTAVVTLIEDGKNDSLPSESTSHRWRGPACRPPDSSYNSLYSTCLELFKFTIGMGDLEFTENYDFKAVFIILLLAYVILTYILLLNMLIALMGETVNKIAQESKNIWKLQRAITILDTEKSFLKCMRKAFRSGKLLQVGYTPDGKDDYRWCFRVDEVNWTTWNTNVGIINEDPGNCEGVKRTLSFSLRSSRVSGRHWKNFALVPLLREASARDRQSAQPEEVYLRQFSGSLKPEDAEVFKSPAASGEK
Sequence of UniProt P32241 (whole entry, looked up): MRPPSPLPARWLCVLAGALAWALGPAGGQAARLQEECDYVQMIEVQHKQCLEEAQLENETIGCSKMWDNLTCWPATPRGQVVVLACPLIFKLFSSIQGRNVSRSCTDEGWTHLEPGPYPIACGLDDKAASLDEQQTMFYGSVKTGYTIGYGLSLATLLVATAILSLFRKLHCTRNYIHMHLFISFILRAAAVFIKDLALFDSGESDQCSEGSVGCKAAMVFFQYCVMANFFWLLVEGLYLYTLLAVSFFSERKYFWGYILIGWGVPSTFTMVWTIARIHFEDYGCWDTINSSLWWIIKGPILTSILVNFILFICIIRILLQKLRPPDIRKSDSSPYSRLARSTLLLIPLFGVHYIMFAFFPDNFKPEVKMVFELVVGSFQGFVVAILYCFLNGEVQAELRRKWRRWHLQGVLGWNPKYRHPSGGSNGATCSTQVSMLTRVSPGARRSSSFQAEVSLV

SMILES	target	assay	conditions	inhibition
C[Si](C)(C)C[C@@H](CN)CC(=O)O	Cacna1b	cell-free assay, inhibitor	75 µM	-19%
Cc1sc2c(c1C)C(c1ccc(Cl)cc1)=NC(CC(=O)OC(C)(C)C)c1nnc(C)n1-2 (centres unmarked)	Vasoactive intestinal polypeptide receptor 1 (VIPR1, Homo sapiens, UniProt P32241)	ligand displacement, radioligand	1 µM	-9%
CCN(CC)C(=O)[C@@H]1C=C2c3cccc4c3c(cn4C(=O)c3ccco3)C[C@H]2N(C)C1	Alpha-1D adrenergic receptor (ADRA1D, Homo sapiens, UniProt P25100)	radioligand binding	10 µM	< 50%
CC(C)c1nc2cc(O)ccc2c(=O)n1-c1ccc(C#N)cc1	Transient receptor potential cation channel subfamily V member 1 (TRPV1, Homo sapiens, UniProt Q8NER1, I573A)	ion current, inhibitor, whole-cell patch clamp	concentration not given, pH 5, mutant I573A	decreased
Oc1cc(Cn2ccnn2)ccc1Oc1ccc(Cl)cc1Cl	inhA	enzyme activity, inhibitor	concentration not given	97 ± 0.14%
CN[C@@H]1[C@H](O)[C@H](NC)[C@H]2O[C@]3(O)[C@H](O[C@@H]2[C@H]1O)O[C@H](C)C[C@H]3NC(=O)Cc1cc(Cl)ccn1	ATP-binding cassette sub-family C member 8 (ABCC8, Cricetus cricetus, UniProt Q09427)	–	10 µM	12%
Oc1cc(CNc2ccccc2)ccc1Oc1ccc(Cl)cc1Cl	inhA	enzyme activity, inhibitor	concentration not given	99 ± 0.28%
CN[C@@H]1[C@H](O)[C@H](NC)[C@H]2O[C@]3(O)[C@H](O[C@@H]2[C@H]1O)O[C@H](C)C[C@H]3NC(=O)Cc1ccc(Cl)cn1	Cacna1b	cell-free assay	10 µM	27%

Repeated from above:
SMILES	target	assay	conditions	inhibition
Oc1cc(Cn2ccnn2)ccc1Oc1ccc(Cl)cc1Cl	inhA	enzyme activity, inhibitor	concentration not given	97 ± 0.14%
